Results pooled from the literature.
Each line is one published result; not all experiments were run side by side. Numbers after ± are the reported error.
nadD: Probable nicotinate-nucleotide adenylyltransferase (nadD, Mycobacterium tuberculosis, UniProt P9WJJ5)
Chain of UniProt P9WJJ5 (whole entry, looked up): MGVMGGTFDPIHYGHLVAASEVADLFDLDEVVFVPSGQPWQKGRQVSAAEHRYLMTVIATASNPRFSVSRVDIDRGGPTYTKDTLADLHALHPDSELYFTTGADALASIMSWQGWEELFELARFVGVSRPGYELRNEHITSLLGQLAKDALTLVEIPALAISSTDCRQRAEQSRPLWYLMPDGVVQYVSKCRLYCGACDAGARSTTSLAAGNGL
HTR2C: 5-hydroxytryptamine receptor 2C (HTR2C, Homo sapiens, UniProt P28335)
Chain of UniProt P28335 (whole entry, looked up): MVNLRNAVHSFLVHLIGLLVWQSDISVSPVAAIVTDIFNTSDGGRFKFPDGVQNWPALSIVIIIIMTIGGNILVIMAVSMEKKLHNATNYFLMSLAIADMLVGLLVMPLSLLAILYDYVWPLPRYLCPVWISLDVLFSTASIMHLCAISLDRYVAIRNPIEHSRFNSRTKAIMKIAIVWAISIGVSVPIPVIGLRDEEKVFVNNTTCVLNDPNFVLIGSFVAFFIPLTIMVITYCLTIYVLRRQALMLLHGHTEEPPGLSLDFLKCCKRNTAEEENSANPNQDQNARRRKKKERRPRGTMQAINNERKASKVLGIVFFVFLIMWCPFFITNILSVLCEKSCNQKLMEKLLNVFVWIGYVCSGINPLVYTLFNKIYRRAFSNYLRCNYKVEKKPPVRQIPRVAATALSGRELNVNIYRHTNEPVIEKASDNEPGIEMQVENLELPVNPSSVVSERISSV
SLC6A4: Sodium-dependent serotonin transporter (SLC6A4, Homo sapiens, UniProt P31645)
Chain of UniProt P31645 (whole entry, looked up): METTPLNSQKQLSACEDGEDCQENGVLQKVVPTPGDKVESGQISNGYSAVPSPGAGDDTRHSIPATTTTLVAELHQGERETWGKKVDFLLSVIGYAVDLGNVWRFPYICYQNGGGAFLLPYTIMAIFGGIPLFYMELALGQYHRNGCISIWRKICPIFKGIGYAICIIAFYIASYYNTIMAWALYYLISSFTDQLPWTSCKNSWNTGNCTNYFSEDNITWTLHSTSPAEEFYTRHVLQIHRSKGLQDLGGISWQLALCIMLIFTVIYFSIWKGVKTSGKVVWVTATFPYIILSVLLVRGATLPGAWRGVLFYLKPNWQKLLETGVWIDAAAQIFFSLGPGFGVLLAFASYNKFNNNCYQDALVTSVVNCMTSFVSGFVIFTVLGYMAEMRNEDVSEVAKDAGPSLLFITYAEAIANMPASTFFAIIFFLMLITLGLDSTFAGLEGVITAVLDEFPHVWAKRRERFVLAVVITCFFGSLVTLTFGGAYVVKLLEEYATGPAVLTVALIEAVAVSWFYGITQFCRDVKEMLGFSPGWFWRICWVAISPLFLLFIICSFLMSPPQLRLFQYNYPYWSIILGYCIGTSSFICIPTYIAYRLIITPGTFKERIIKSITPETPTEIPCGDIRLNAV
Chain of UniProt P17787 (whole entry, unmodified, looked up): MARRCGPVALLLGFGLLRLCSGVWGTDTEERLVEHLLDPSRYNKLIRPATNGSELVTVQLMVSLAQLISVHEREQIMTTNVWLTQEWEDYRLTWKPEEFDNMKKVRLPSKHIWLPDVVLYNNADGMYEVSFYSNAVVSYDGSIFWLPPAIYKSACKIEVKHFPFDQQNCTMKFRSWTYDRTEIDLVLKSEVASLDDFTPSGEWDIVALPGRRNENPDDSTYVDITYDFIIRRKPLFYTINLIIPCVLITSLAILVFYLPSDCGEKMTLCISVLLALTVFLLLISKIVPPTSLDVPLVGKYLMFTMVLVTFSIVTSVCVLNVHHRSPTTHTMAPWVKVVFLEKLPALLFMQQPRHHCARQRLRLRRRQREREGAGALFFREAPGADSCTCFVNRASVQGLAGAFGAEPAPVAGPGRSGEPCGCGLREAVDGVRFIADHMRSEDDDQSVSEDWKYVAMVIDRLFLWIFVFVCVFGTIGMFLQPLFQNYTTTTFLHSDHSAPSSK
Chain of UniProt P43681 (whole entry, unmodified, looked up): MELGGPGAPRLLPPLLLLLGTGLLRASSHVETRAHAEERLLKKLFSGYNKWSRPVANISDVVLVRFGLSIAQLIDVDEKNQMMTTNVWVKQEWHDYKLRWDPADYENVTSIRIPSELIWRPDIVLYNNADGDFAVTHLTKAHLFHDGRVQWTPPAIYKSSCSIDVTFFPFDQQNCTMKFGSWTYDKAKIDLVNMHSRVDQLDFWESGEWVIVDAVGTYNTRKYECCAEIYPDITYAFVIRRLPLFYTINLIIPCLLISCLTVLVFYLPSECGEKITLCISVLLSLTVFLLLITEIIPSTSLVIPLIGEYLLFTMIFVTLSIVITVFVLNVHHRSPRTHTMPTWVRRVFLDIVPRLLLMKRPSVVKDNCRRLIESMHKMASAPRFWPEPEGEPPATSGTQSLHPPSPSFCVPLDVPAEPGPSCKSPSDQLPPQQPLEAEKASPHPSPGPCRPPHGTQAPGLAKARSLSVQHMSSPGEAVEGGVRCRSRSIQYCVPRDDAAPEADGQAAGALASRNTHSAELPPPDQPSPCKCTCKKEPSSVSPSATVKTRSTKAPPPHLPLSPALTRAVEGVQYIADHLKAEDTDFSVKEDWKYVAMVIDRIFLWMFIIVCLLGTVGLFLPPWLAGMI
Chain of UniProt O95180 (whole entry, looked up): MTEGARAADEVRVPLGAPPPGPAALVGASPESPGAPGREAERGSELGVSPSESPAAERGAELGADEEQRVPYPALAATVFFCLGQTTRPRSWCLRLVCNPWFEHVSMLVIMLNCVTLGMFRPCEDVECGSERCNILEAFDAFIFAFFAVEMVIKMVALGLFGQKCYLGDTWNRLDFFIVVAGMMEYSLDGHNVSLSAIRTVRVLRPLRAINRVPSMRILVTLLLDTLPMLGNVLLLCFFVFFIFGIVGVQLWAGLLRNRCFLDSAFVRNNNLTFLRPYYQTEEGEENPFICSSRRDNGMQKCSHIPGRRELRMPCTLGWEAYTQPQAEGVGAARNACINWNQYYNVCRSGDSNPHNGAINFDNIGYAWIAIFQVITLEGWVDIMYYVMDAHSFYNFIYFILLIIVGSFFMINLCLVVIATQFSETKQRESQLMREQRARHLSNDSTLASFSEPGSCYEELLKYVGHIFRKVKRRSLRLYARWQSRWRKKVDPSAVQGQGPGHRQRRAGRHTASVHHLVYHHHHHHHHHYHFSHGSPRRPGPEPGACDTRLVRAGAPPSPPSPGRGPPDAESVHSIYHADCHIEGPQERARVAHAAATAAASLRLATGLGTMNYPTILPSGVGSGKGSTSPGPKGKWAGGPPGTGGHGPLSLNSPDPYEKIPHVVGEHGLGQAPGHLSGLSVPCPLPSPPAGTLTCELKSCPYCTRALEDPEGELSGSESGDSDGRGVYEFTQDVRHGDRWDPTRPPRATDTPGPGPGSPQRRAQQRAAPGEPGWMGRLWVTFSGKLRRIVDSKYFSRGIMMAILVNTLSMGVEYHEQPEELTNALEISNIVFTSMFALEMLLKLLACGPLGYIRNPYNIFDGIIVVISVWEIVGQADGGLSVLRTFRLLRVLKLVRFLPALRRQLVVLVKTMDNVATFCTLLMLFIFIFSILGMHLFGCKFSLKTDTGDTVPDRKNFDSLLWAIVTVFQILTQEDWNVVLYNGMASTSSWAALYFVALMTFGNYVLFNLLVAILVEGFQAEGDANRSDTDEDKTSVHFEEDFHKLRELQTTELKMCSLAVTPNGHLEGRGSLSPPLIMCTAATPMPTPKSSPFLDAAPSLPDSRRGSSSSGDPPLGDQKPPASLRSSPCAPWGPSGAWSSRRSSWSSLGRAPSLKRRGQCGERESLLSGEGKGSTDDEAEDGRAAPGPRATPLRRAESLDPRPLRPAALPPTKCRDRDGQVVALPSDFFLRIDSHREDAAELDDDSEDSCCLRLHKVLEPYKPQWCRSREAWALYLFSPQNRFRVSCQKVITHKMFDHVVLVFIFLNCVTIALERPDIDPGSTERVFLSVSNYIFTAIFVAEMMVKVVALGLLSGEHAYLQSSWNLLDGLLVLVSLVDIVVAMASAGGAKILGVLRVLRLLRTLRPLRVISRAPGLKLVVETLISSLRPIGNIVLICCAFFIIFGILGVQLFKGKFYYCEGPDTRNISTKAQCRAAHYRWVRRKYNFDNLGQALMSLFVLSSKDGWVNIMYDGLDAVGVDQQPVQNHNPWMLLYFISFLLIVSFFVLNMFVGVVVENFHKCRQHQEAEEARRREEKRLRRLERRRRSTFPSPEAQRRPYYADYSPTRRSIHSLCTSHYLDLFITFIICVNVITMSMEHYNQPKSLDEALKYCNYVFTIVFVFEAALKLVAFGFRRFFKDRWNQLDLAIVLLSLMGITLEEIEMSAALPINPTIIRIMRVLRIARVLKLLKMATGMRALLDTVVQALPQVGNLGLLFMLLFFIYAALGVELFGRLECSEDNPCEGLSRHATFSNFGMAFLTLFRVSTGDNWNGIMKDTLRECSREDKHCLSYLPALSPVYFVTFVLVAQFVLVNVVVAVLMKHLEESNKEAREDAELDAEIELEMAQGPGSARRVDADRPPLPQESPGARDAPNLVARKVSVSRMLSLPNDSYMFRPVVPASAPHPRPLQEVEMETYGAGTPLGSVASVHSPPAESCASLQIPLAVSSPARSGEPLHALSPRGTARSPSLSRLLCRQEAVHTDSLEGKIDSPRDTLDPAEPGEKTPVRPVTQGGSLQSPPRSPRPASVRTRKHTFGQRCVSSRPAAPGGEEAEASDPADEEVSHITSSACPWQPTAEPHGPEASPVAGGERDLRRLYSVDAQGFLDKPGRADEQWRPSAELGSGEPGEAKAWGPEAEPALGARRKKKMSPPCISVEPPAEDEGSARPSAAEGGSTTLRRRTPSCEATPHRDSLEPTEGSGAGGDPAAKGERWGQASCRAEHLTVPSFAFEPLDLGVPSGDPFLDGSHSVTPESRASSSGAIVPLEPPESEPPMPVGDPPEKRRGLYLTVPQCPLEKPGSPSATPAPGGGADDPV

| Substance | target | assay | test system | setting | scale | IC50 [µM] |
| --- | --- | --- | --- | --- | --- | --- |
| CCn1cc(C(=O)NCc2ccccc2Cl)c(=O)c2cc(F)c(N3CCN(C(=O)c4ccco4)CC3)cc21 | nadD | enzyme activity, inhibitor, released pyrophosphate |  |  |  | 5.3 ± 1.8 |
| COCCC1CC2CN3CCc4c([nH]c5ccccc45)C(C(=O)OC)(C2)C13 (racemic) | Neuronal acetylcholine receptor; alpha4/beta2 (Homo sapiens, UniProt P17787+P43681) | calcium influx, antagonist | HEK293-hα4β2 | 5 min, with: (±)-epibatidine 0.1 µM |  | 6.3 ± 1.3 |
| CCn1cc(C(=O)NCC2CCCO2)c(=O)c2cc(F)c(N3CCN(C(=O)c4ccco4)CC3)cc21 (stereo not shown) | nadD | enzyme activity, inhibitor, released pyrophosphate |  |  |  | > 100 |
| c1ccc(CCCN2CCN(CCOC(c3ccccc3)c3ccccc3)CC2)cc1 | SLC29A4 (Homo sapiens, UniProt Q7RTT9) | transporter uptake, inhibitor, radiometric |  | pH 7.4 |  | 30 |
| COC1C(O)C(n2ccc(=O)[nH]c2=O)OC1C(OC1OC(C(=O)Nc2ccc(F)c(F)c2)=CC(O)C1O)C(N)=O (stereo not shown) | bacterial RNA polymerase | enzyme activity, inhibitor |  |  | greater than highest tested | > 100 |
| CCCC(C(=O)c1ccc2ccccc2c1)N1CCCC1 (stereo not shown) | HTR2C | inositol phosphate, antagonist |  |  |  | > 1000 |
| CCCC(NC)C(=O)c1ccc(Cl)cc1 (stereo not shown) | SLC6A4 | transporter uptake, inhibitor, radiometric |  |  |  | 0.61 |
| CCn1cc(C(=O)Nc2nnc(CC(C)C)s2)c(=O)c2cc(F)c(N3CCN(C(=O)c4ccco4)CC3)cc21 | nadD | enzyme activity, inhibitor, released pyrophosphate |  |  |  | > 50 |
| COC(=O)[C@H]1[C@@H](c2ccc(Cl)cc2)C[C@H]2CC[C@H]1N2C | Slc6a3 (Mus musculus, UniProt Q61327) | transporter uptake, inhibitor, radiometric |  |  |  | 0.00091 |
| Ic1cncc(OC[C@@H]2CCN2)c1 | Neuronal acetylcholine receptor; alpha4/beta2 (Homo sapiens, UniProt P17787+P43681, S138R) | binding, inhibitor |  | 5 h, room temperature, with: 5 nM [3H]epibatidine |  | 0.0112 ± 0.00068 |
| CCC(C(=O)c1ccc2c(c1)OCO2)N(C)C (stereo not shown) | SLC6A4 | transporter uptake, inhibitor, radiometric |  |  |  | > 9.7 |
| CCC1=C[C@@H]2CN3CCc4c([nH]c5ccccc45)[C@@](C(=O)OC)(C2)[C@@H]13 | CHRNA7 (Homo sapiens, UniProt P36544) | calcium influx, antagonist | GH3-hα7 | 5 min, with: (±)-epibatidine 1.0 µM |  | 21.8 ± 2.5 |
| CCn1cc(C(=O)Nc2nc(C)cs2)c(=O)c2cc(F)c(N3CCN(C(=O)c4ccco4)CC3)cc21 | nadD | enzyme activity, inhibitor, released pyrophosphate |  |  |  | > 50 |
| CCC[C@@H](C(=O)c1ccc2c(c1)OCO2)N1CCCC1 | Slc6a3 (Rattus norvegicus, UniProt P23977) | transporter uptake, inhibitor, radiometric |  |  |  | 0.00213 |
| CCCCCc1cc(O)c2c(c1)OC(C)(C)c1ccc(C)cc1-2 | rat intestinal α-glucosidase | enzyme activity, inhibitor |  |  |  | 350 |
| Cc1ccccc1OCc1n(CC(=O)OC2CC(C)CCC2C(C)C)c2ccccc2[n+]1C (stereo not shown) | nadD | released PPi detection |  |  |  | 18.2 ± 2.6 |
| CNC(C)C(=O)c1ccccc1 (stereo not shown) | HTR2C | inositol phosphate, antagonist |  |  |  | > 1000 |
| CCn1cc(C(=O)NC(C)c2ccccc2)c(=O)c2cc(F)c(N3CCN(C(=O)c4ccco4)CC3)cc21 (stereo not shown) | nadD | enzyme activity, inhibitor, released pyrophosphate |  |  |  | 2.5 ± 0.3 |
| NC(N)=Nc1ccc2[nH]c3c(c2c1)C[C@@]1(O)[C@H]2Cc4ccc(O)c5c4[C@@]1(CCN2CC1CC1)[C@H]3O5 | AASDHPPT (Homo sapiens, UniProt Q9NRN7) | phosphopantetheinylation, inhibitor, fluorescence polarization |  | 45 min, pH 7.6, 10% DMSO, with: VibB 10 µM and rhodamine-CoA 5 µM |  | > 100 |
| CCn1cc(C(=O)NCCc2ccccc2)c(=O)c2cc(F)c(N3CCN(C(=O)c4ccco4)CC3)cc21 | nadD | enzyme activity, inhibitor, released pyrophosphate |  |  |  | 29.6 ± 6.2 |
| O=c1[nH]c2ccccc2n1C1CCN(CCCC(c2ccc(F)cc2)c2ccc(F)cc2)CC1 | CACNA1H (Homo sapiens, UniProt O95180) | calcium current, blocker, automated patch clamp | holding potential -90 mV | last pulse of train, with: 1 Hz pulse train |  | 5.5 ± 1.3 |
| Sc1nc2ccccc2[nH]1 | mbtI (Mycobacterium tuberculosis, UniProt P9WFX1) |  |  |  |  | 58.8 ± 3.6 |
| zantrin Z3 | ftsZ (Bacillus subtilis, UniProt P17865) | GTPase activity, inhibitor |  | no Triton X-100 |  | 32 |
| CCCC(NCC)C(=O)c1ccc2c(c1)OCO2 (stereo not shown) | SLC6A4 | transporter uptake, inhibitor, radiometric |  |  |  | 0.46 |
| C[C@]12CC[C@@H](O)C[C@@H]1CC[C@@H]1[C@@H]2C(=O)C[C@]2(C)C(C=O)=CC[C@@H]12 | GABAA receptor picrotoxin site |  |  |  |  | 0.997 ± 0.187 |

Excerpt of the above:
| Substance | target | assay | test system | setting | scale | IC50 [µM] |
| --- | --- | --- | --- | --- | --- | --- |
| O=c1[nH]c2ccccc2n1C1CCN(CCCC(c2ccc(F)cc2)c2ccc(F)cc2)CC1 | CACNA1H (Homo sapiens, UniProt O95180) | calcium current, blocker, automated patch clamp | holding potential -90 mV | last pulse of train, with: 1 Hz pulse train |  | 5.5 ± 1.3 |
| Sc1nc2ccccc2[nH]1 | mbtI (Mycobacterium tuberculosis, UniProt P9WFX1) |  |  |  |  | 58.8 ± 3.6 |
| zantrin Z3 | ftsZ (Bacillus subtilis, UniProt P17865) | GTPase activity, inhibitor |  | no Triton X-100 |  | 32 |
| CCCC(NCC)C(=O)c1ccc2c(c1)OCO2 (stereo not shown) | SLC6A4 | transporter uptake, inhibitor, radiometric |  |  |  | 0.46 |
